Results collected from several papers.
Compare with care: the assays were run in different laboratories. Numbers after ± are the reported error.

Compound	tested on	assay	test system	conditions	scale	measurement	value
CC(=O)N[C@H](C(=O)N[C@H](C(=O)N[C@@H](CCCNC(=N)N)C(=O)N1Cc2ccccc2C[C@H]1C(=O)N[C@@H](Cc1ccccc1)C(N)=O)C1CCCCC1)C(C)C	human PBMC	Bio-Plex multiplex, refers to: RANTES	–	500 µg/mL, 24 h	–	cytokine level	6990 ± 8150 pg/mL
COc1cc(O)cc2c1-c1ccc(O)c(OC)c1CC2	BV-2	cell growth or viability, MTT	–	10 µM, 24 h	–	viability	101%
[64Cu+2].c1cnc(CNCc2ccc(CN3CCCN4CCNCCCN(CC4)CC3)cc2)nc1	CXCR4	–	NOD/SCID mouse, U87 xenografts, U87 tumour	90 min, together with: AMD3465 25 mg/kg sc	–	tissue uptake	1.5 ± 0.16 %ID/g
Cn1c(=O)oc2ccc(-c3ccc(CC(C#N)NC(=O)C4CNCCCO4)c(F)c3)cc21 (centres unmarked)	–	refers to: macule	human	40 mg single dose, fasted	–	subjects with TRAE	0%
N#CCc1cccc(Cl)c1-c1ccc2[nH][11c](=O)[nH]c2c1	P-glycoprotein and Bcrp	ex vivo brain uptake	mouse	injection, 5 min, together with: tariquidar	reference: without tariquidar	brain uptake increase	146%
O=C(O)CCC(NP(=O)(O)OCCC[C@@H](NC(=O)CC[C@H](NC(=O)CCCCCNC(=O)c1ccc([18F])cc1)C(=O)O)C(=O)O)C(=O)O (some centres unmarked)	CWR22Rv1 tumour model	–	host not given, heart	4 h, tumour-bearing	–	tracer uptake	0.067 %ID/g
COc1cc(O)c(-c2c(O)cc(OC)c3c2ccc2cc(O)ccc23)c2ccc3ccccc3c12	BV-2	cell growth or viability, MTT	–	40 µM, 24 h	–	viability	44.5%
N=C(N)NCCC[C@@H]1NC(=O)[C@H](Cc2c[nH]c3ccccc23)NC(=O)[C@@H](CC2CCCCC2)NC(=O)[C@@H]2CCCN2C(=O)[C@@H](NC(=O)CCc2ccccc2)CCCNC1=O	–	two-compartment model	C57BL/6J mice, brain	subcutaneous, 1 mg/kg	–	alpha rate constant	2.03 h⁻¹
